{"data": "Results pooled from the literature", "note": "A part holds a random share of what one study measured. Several values in a cell are separate wells, animals, samples, runs or records.", "sequence of UniProt Q13237 (whole entry, looked up)": "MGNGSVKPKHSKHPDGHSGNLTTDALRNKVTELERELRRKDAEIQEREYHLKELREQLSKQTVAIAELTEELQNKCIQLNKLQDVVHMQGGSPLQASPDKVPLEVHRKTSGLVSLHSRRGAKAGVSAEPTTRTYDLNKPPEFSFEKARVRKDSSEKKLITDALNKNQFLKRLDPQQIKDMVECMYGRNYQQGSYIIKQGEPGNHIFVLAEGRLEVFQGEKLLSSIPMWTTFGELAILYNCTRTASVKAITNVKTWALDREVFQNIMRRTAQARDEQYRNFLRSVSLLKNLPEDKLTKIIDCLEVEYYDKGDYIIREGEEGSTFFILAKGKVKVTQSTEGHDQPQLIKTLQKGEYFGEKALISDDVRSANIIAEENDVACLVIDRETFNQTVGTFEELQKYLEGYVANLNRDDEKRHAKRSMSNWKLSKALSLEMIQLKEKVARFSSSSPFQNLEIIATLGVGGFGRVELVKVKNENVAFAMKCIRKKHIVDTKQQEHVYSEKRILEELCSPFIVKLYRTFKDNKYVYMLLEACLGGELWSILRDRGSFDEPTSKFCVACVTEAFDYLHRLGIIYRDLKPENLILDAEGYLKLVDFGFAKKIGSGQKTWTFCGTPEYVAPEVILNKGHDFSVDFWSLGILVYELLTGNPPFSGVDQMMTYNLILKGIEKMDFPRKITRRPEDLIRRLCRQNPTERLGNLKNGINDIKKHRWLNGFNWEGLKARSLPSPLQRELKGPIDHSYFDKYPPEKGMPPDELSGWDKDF", "sequence of UniProt P17948 (whole entry, looked up)": "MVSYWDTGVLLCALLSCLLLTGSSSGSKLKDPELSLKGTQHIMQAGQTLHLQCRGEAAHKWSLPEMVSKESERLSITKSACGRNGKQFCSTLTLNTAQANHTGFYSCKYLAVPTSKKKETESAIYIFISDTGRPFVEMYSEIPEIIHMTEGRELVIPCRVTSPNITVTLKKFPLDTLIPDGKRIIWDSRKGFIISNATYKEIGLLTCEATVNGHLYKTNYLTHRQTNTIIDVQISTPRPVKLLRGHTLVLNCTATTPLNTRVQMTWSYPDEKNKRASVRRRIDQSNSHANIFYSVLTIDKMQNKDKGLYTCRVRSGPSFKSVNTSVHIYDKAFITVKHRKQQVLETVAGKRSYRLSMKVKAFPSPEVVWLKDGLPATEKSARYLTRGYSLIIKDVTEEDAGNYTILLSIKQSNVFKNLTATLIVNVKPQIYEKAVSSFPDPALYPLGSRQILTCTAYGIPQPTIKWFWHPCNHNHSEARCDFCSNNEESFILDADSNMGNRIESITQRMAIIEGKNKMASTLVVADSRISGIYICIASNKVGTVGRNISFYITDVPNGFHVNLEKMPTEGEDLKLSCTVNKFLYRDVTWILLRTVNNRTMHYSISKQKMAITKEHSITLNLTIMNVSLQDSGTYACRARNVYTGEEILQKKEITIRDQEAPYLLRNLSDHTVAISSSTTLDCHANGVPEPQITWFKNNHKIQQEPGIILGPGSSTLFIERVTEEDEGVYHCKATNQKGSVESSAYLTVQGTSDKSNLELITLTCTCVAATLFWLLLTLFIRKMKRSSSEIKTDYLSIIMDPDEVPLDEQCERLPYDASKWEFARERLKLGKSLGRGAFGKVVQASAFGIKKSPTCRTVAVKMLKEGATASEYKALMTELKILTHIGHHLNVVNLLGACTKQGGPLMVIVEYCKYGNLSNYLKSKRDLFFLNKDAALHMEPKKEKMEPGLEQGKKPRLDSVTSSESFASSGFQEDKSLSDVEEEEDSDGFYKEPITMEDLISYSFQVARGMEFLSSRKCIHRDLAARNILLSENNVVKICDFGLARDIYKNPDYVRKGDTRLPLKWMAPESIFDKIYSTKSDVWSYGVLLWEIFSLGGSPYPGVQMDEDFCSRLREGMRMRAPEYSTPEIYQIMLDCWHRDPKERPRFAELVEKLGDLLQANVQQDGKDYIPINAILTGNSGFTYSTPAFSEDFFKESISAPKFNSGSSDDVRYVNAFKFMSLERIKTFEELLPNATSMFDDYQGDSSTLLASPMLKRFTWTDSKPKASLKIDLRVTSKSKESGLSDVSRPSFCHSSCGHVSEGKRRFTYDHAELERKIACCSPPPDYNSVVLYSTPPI"}
{"data": "Block 1", "target": "DNA polymerase theta, ATPase domain (POLQ, Homo sapiens, UniProt O75417)", "effect on": "enzyme activity", "mode": "inhibitor", "tested at": "77 µM", "baseline": "untreated", "sequence of UniProt O75417 (whole entry, unmodified, looked up)": "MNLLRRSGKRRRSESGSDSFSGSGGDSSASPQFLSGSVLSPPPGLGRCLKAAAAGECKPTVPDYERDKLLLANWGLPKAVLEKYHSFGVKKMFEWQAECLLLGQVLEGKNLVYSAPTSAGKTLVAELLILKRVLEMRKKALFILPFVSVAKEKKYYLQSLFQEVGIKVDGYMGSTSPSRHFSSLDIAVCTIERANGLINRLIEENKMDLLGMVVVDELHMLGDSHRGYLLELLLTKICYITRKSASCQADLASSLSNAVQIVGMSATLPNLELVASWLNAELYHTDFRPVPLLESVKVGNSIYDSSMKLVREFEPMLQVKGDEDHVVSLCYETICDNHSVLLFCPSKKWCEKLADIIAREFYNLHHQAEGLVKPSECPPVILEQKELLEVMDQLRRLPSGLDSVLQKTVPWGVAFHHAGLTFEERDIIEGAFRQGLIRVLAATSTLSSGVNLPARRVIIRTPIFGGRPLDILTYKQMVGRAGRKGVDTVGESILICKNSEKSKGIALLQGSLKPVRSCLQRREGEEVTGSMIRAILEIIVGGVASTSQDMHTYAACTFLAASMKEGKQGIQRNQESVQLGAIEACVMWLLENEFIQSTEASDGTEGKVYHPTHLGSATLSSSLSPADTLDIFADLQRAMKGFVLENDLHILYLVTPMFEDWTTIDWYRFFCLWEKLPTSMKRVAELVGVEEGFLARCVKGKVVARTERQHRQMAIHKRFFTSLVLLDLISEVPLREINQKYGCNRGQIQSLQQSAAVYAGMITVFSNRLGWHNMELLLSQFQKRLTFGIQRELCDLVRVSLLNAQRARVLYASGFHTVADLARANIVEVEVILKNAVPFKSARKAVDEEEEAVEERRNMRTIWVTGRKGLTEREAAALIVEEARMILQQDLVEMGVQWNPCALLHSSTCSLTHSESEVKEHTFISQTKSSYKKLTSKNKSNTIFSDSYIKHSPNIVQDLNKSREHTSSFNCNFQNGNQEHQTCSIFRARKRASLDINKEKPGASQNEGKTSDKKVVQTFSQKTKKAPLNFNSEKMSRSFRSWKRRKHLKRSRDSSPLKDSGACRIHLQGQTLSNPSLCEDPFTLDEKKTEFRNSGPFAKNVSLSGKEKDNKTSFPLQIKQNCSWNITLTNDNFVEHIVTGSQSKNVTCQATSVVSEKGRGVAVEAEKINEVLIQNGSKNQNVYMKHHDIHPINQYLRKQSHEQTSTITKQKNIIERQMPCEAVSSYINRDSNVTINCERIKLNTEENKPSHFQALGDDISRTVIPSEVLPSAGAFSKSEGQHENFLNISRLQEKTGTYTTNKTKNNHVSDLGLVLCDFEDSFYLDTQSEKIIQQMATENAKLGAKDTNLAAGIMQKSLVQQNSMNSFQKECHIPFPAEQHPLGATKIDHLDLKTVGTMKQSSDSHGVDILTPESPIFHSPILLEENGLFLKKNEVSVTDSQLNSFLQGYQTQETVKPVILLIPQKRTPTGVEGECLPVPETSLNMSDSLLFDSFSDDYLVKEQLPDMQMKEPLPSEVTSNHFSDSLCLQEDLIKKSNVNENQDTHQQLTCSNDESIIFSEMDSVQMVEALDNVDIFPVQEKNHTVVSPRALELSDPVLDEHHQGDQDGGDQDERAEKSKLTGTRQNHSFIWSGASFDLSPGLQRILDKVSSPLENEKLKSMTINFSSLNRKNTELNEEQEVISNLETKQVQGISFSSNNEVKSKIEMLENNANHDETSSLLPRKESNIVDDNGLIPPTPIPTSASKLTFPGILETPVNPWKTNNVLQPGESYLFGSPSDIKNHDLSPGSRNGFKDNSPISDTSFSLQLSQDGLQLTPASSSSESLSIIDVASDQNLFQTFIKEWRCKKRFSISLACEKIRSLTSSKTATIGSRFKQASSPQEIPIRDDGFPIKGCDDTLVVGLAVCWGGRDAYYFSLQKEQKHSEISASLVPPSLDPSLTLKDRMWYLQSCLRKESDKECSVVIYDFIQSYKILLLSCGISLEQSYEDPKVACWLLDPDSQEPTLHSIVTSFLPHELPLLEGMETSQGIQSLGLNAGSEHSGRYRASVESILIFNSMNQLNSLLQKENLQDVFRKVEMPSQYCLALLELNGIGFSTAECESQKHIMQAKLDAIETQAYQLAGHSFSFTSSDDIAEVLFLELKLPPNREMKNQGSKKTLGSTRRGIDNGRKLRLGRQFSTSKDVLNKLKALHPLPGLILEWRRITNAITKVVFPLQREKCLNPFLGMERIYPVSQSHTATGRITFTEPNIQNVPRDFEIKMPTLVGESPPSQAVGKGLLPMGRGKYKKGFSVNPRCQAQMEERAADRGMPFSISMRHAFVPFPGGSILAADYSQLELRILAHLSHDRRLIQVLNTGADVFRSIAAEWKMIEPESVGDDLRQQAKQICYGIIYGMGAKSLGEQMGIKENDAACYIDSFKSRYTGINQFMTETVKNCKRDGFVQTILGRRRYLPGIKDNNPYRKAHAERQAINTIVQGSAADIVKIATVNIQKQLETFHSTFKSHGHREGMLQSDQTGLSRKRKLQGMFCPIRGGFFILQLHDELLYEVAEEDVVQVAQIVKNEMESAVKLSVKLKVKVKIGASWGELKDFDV"}
{"Compound": "CC(C)c1cc(-c2ccc(F)c3ccccc23)nc(N)n1", "remaining activity": "102%"}
{"Compound": "O=C(c1cc2cc(O)ccc2[nH]1)c1cc2cc(O)ccc2[nH]1", "remaining activity": "113%"}
{"Compound": "CC[C@H](CO)Nc1nc(NCc2ccccc2O)c2ncn(C(C)C)c2n1", "remaining activity": "108%"}
{"Compound": "COc1ccc(NS(=O)(=O)c2ccc(N)cc2)nn1", "remaining activity": "94.8% and 99.9%"}
{"Compound": "CN1CCCN=C1/C=C/c1cccs1", "remaining activity": "101%"}
{"Compound": "CNCc1ccc(-c2[nH]c3cc(F)cc4c3c2CCNC4=O)cc1", "remaining activity": "77.3%"}
{"Compound": "COc1ccc([C@H]2CNC(=O)C2)cc1OC1CCCC1", "remaining activity": "100%"}
{"Compound": "CCOc1nc2cccc(C(=O)O)c2n1Cc1ccc(-c2ccccc2-c2noc(=O)[nH]2)cc1", "remaining activity": "73.6%"}
{"Compound": "CC(N)CCCC(C)(C)O (stereo not drawn)", "remaining activity": "105%"}
{"Compound": "Nc1ccccc1NC(=O)c1ccc(CNC(=O)OCc2cccnc2)cc1", "remaining activity": "92.4%"}
{"Compound": "CC(O)Cn1cnc2c1c(=O)n(C)c(=O)n2C (stereo not drawn)", "remaining activity": "101%"}
{"Compound": "CCOC(=O)NCCCC(=O)NCCc1ccccc1", "remaining activity": "99.5%"}
{"data": "Block 2", "target": "Eukaryotic initiation factor 4A-I (EIF4A1, Homo sapiens, UniProt P60842)", "effect on": "RNA clamping", "technique": "fluorescence polarization", "tested at": "concentration not given", "notes": "mean of two replicates", "with": "FAM-labelled poly r(AG)8 RNA", "sequence of UniProt P60842 (whole entry, looked up)": "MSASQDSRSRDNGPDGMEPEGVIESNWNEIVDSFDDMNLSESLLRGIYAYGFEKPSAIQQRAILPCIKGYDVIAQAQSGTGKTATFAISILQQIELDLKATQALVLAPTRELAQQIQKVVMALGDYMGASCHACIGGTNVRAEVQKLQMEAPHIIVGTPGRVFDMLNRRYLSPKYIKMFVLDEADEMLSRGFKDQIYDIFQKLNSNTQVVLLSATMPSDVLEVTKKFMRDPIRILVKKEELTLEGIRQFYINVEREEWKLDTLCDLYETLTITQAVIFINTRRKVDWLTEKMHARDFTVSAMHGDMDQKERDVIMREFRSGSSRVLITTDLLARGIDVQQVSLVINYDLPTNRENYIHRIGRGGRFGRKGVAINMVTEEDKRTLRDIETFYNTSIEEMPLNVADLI"}
{"Compound": "CCOC(=O)COc1cc(OC)c2c(c1)O[C@@]1(c3ccc(OC)cc3)[C@H](c3ccccc3)c3c(nc(-c4ccccc4)[nH]c3=O)[C@@]21OCC(=O)OCC", "fluorescence polarization change": "-7.4 mP"}
{"Compound": "COc1ccc([C@@]23Oc4cc(O)cc(OC)c4[C@]2(O)[C@H](O)[C@H](C(=O)N(C)OC)[C@H]3c2ccccc2)cc1", "fluorescence polarization change": "7.7 mP"}
{"Compound": "COC(=O)[C@@H]1[C@@H](c2ccccc2)[C@]2(c3ccc(OC)cc3)Oc3cc(OC)cc(OC)c3[C@@]23NC(C2CCC2)=N[C@@]13O", "fluorescence polarization change": "65.6 mP"}
{"Compound": "COC(=O)[C@@H]1[C@@H](c2ccccc2)[C@]2(c3ccc(OC)cc3)Oc3cc(OC)cc(OC)c3[C@@]1(O)C2(O)O", "fluorescence polarization change": "2.1 mP"}
{"Compound": "COc1ccc([C@@]23Oc4cc(OC)cc(OC)c4[C@]2(O)[C@H](O)[C@H](C(=O)c2ccco2)[C@H]3c2ccc(O)cc2)cc1", "fluorescence polarization change": "25.7 mP"}
{"Compound": "COC(=O)[C@@H]1[C@@H](c2ccccc2)[C@]2(c3ccc(OC)cc3)Oc3cc(OC)cc(OC)c3[C@@]23N=C2CCCCN2[C@@]13O", "fluorescence polarization change": "52.7 mP"}
{"Compound": "COc1ccc([C@]23Oc4cc(OC)cc(OC)c4[C@](O)(C2O)[C@H](c2c(F)c(F)c(F)c(F)c2F)[C@H]3c2ccccc2)cc1 (stereo partly drawn)", "fluorescence polarization change": "5.5 mP"}
{"Compound": "COc1ccc([C@@]23Oc4cc(OC)cc(OC)c4[C@]2(O)c2nc(C4CC4)[nH]c(=O)c2[C@H]3c2ccccc2)cc1", "fluorescence polarization change": "48.3 mP and 60.7 mP and 66.7 mP"}
{"Compound": "COC(=O)[C@H]1[C@@H](O)[C@@]2(O)c3c(OC)cc(OS(=O)(=O)c4ccc(C)cc4)cc3O[C@@]2(c2ccc(Br)cc2)[C@@H]1c1ccccc1", "fluorescence polarization change": "40.9 mP and 16.1 mP"}
{"Compound": "COc1cc(OC)c2c(c1)N(C)[C@]1(c3ccc(Br)cc3)C(=O)[C@@]2(O)[C@H](c2ccccc2)[C@H]1c1ccccc1", "fluorescence polarization change": "1.6 mP"}
{"Compound": "COc1ccc([C@]23Oc4cc(OC)cc(OC)c4[C@](O)([C@H](C(=O)OCc4ccccc4)[C@H]2c2ccccc2)[C@@H]3O)cc1", "fluorescence polarization change": "1.4 mP"}
{"Compound": "C#CCCC1(CCNC(=O)CCCn2c(-c3ccccc3)nc3c(c2=O)[C@@H](c2ccccc2)[C@]2(c4ccc(OC)cc4)Oc4cc(OC)cc(OC)c4[C@]32O)N=N1", "fluorescence polarization change": "6.2 mP"}
{"Compound": "COC(=O)[C@@H]1[C@@H](c2ccccc2)[C@]2(c3ccc(OC)cc3)Oc3cc(OC)cc(OC)c3[C@@]23N2CCCC2=N[C@@]13O", "fluorescence polarization change": "7.3 mP"}
{"data": "Block 3", "cell line": "HaCaT", "tested at": "100 µM", "time": "18 h"}
{"Compound": "CCN(CC)C(=O)Nc1ccc(OCC(O)CNC(C)(C)C)c(C(C)=O)c1 (stereo not drawn)", "viability": "97.2%"}
{"Compound": "CNS(=O)(=O)Cc1ccc2[nH]cc(CCN(C)C)c2c1", "viability": "92.8%"}
{"Compound": "N[C@@H](Cc1cc(I)c(Oc2cc(I)c(O)c(I)c2)c(I)c1)C(=O)O", "viability": "93.1%"}
{"Compound": "Cc1ccc2c(Cl)cc(Cl)c(O)c2n1", "viability": "77.5%"}
{"Compound": "C[C@]12CC[C@@H]3c4ccc(OS(=O)(=O)O)cc4CC[C@H]3[C@@H]1CCC2=O", "viability": "108%"}
{"Compound": "CC(=O)O[C@]1(C(C)=O)CC[C@H]2[C@@H]3C=C(C)C4=CC(=O)CC[C@]4(C)[C@H]3CC[C@@]21C", "viability": "61.9%"}
{"Compound": "C[C@H](N)[C@H](O)c1cccc(O)c1", "viability": "111%"}
{"Compound": "O=C(Nc1ccccc1)OCC(CN1CCCCC1)OC(=O)Nc1ccccc1 (stereo not drawn)", "viability": "62%"}
{"Compound": "O=C1c2c(O)ccc(O)c2C(=O)c2c(NCCNCCO)ccc(NCCNCCO)c21", "viability": "21.7%"}
{"Compound": "CN1CCN(c2c(F)cc3c(=O)c(C(=O)O)cn4c3c2OCN4C)CC1", "viability": "107%"}
{"Compound": "C[C@H](CCC(=O)O)[C@H]1CC[C@H]2[C@@H]3CC[C@@H]4C[C@H](O)CC[C@]4(C)[C@H]3CC[C@]12C", "viability": "107%"}
{"Compound": "CC[C@@H]1C(=O)OC[C@@H]1Cc1cncn1C", "viability": "111%"}
{"Compound": "COc1ccc2c(c1)c(CC(=O)O)c(C)n2C(=O)c1ccc(Cl)cc1", "viability": "97.1%"}
{"data": "Block 4", "Compound": "C[C@H](NC(=O)c1cnc2n1[C@](C)(Cc1ccc(C#N)cc1)C(=O)N2c1cc(Cl)c(F)c(Cl)c1)C(=O)NC1(c2ccccn2)CC1", "tested at": "1 µM"}
{"target": "FLT1 (Homo sapiens, UniProt P17948)", "test": "cell-free assay, competition with immobilised ligand", "remaining binding [%]": 100}
{"target": "RIOK3 (Homo sapiens, UniProt O14730)", "test": "cell-free assay, competition with immobilised ligand", "remaining binding [%]": 100}
{"target": "STK32A (Homo sapiens, UniProt Q8WU08)", "test": "cell-free assay, competition with immobilised ligand", "remaining binding [%]": 83}
{"target": "CAMK1 (Homo sapiens, UniProt Q14012)", "test": "cell-free assay, competition with immobilised ligand", "remaining binding [%]": 96}
{"target": "EPHB2 (Homo sapiens, UniProt P29323)", "test": "cell-free assay, competition with immobilised ligand", "remaining binding [%]": 100}
{"target": "FER (Homo sapiens, UniProt P16591)", "test": "cell-free assay, competition with immobilised ligand", "remaining binding [%]": 100}
{"target": "PDGFRB (Homo sapiens, UniProt P09619)", "test": "cell-free assay, competition with immobilised ligand", "remaining binding [%]": 91}
{"target": "PRKX (Homo sapiens, UniProt P51817)", "test": "cell-free assay, competition with immobilised ligand", "remaining binding [%]": 100}
{"target": "SIK1 (Homo sapiens, UniProt P57059)", "test": "competition binding", "remaining binding [%]": 100}
{"target": "ROCK2 (Homo sapiens, UniProt O75116)", "test": "cell-free assay, competition with immobilised ligand", "remaining binding [%]": 100}
{"target": "MKNK1 (Homo sapiens, UniProt Q9BUB5)", "test": "cell-free assay, competition with immobilised ligand", "remaining binding [%]": 93}
{"target": "DAPK3 (Homo sapiens, UniProt O43293)", "test": "cell-free assay, competition with immobilised ligand", "remaining binding [%]": 97}
{"target": "PRKG2 (Homo sapiens, UniProt Q13237)", "test": "cell-free assay, competition with immobilised ligand", "remaining binding [%]": 85}
{"note": "Repeated from above (block 4):"}
{"target": "CAMK1 (Homo sapiens, UniProt Q14012)", "test": "cell-free assay, competition with immobilised ligand", "remaining binding [%]": 96}
{"target": "EPHB2 (Homo sapiens, UniProt P29323)", "test": "cell-free assay, competition with immobilised ligand", "remaining binding [%]": 100}
{"target": "FER (Homo sapiens, UniProt P16591)", "test": "cell-free assay, competition with immobilised ligand", "remaining binding [%]": 100}
{"target": "PDGFRB (Homo sapiens, UniProt P09619)", "test": "cell-free assay, competition with immobilised ligand", "remaining binding [%]": 91}
{"target": "PRKX (Homo sapiens, UniProt P51817)", "test": "cell-free assay, competition with immobilised ligand", "remaining binding [%]": 100}
